Results from different studies.
Lines come from different studies, so protocols differ. Numbers after ± are the reported error.
USP3 ZnF-UBD domain: Ubiquitin carboxyl-terminal hydrolase 3, ZnF-UBD domain (USP3, Homo sapiens, UniProt Q9Y6I4)
Sequence of UniProt Q9Y6I4 (whole entry, looked up): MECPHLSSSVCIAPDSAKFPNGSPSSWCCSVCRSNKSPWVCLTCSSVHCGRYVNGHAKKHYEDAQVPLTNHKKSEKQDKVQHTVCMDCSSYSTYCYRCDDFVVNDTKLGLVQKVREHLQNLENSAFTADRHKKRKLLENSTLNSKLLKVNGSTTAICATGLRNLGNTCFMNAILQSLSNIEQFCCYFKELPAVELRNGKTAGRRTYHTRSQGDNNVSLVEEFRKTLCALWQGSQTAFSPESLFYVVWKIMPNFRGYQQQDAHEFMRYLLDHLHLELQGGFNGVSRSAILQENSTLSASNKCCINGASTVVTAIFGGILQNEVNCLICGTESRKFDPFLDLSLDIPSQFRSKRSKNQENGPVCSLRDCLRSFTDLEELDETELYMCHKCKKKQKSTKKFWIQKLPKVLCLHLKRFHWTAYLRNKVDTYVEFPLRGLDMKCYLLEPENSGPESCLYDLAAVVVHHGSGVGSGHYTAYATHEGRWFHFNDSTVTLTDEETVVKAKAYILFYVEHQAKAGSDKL

SMILES | target or system | assay | test system | conditions | how to read | endpoint | value
Cc1cc(N)c2c(OCC(C)(C)C(=O)NC(C)C)cccc2n1 | Salmonella typhimurium | reverse mutation, plate incorporation | TA100 | 1000 µg/plate, without S9 | – | mean revertant colonies | 68 colonies/plate
O=C(NCCc1cccnc1)c1ccc(C2CCCCC2)cc1 | – | hepatocyte stability | cryopreserved human hepatocytes | 1 µM | – | hepatic clearance | 19 mL/min/kg
O=C(O)Cn1cnc2c(oc3ccccc32)c1=O | USP3 ZnF-UBD domain | – | – | – | – | Kd | > 1000 µM
Cn1cc(-c2ccc(-c3cncc(Cl)c3N3CCC4(CCNC4=O)CC3)cc2)cn1 | COLO 205 | microarray, measured: R3HDM1 | – | concentration not given, 6 h | reference: untreated cells | fold change in expression | -2.26
Nc1nc(CC(=O)O)cs1 | USP3 ZnF-UBD domain | – | – | – | – | Kd | > 1000 µM
CC[C@H]1[C@@H](O)[C@@H]2[C@H](CC[C@]3(C)[C@@H]([C@H](C)CCNC(=O)NS(=O)(=O)c4ccc(C(C)(C)C)cc4)CC[C@@H]23)[C@@]2(C)CC[C@@H](O)C[C@@H]12 | ATP-dependent translocase ABCB1 (ABCB1, Homo sapiens, UniProt P08183) | substrate | human, plasma | dose not given, alone | – | CL/F mean | 15.1 L/h
O=C(Cn1ccnc1)Nc1ccc(C2CCCCC2)cc1 | – | – | human liver microsomes | 1 µM, without NADPH | – | hepatic clearance | 3.9 mL/min/kg
CN(c1ccc(NC(=O)Nc2ccc(OC(F)(F)F)cc2)cc1)c1ccnc(Nc2cccc(S(N)(=O)=O)c2)n1 | Trypanosoma brucei | – | – | unit not given | reference: pEC50 T. brucei minus pTC50 HepG2 | selectivity | 1.1
O=C(NCc1cc[nH]n1)c1ccc([C@H]2[C@@H](F)[C@@H](F)C[C@@H](F)[C@H]2F)cc1 | – | liver microsome stability | human liver microsomes | 1 µM, without NADPH | – | hepatic clearance | 3.9 mL/min/kg
O=[N+]([O-])c1ccc(Nc2ncnc3ccc(-c4cccc(N5CCOCC5)c4)cc23)cc1C(F)(F)F | Trypanosoma brucei | – | HepG2 | 48 h | reference: HepG2 CC50 over T. brucei GI50 | selectivity index | > 4800
Cc1cc(C(=O)NC(C)(C)COc2cccc3c2C(N)=NS(=O)(=O)N3)cc(C)n1 | human peripheral blood lymphocytes | in vitro micronucleus test | 0.4% DMSO | 1000 µg/mL, 4 h | – | micronucleated binucleated cells | 0.2%
c1cc(-c2ccc3ncnc(Nc4ncco4)c3c2)nc(N2CCOCC2)n1 | Trypanosoma brucei | – | HepG2 | 48 h | reference: HepG2 CC50 over T. brucei GI50 | selectivity index | 110
O=C(Nc1ccc(C2CCCCC2)cc1)c1cn[nH]c1 | – | – | cynomolgus liver microsomes | 1 µM | – | hepatic clearance | 29 mL/min/kg
CC(C)(C(=O)N1CCOc2c(C#N)cncc2C1)C(F)F | – | measured: Gastrointestinal disorders | human | oral, 20 mg twice daily, 14 days, multiple ascending dose | – | subjects with adverse event | 0%
CC(C)C[C@H](NC(=O)C[C@H](O)[C@H](CC(C)C)NC(=O)[C@H](Cc1c[nH]cn1)NC(=O)CNC(=O)[C@@H](NC(=O)[C@H](C)NC(=O)[C@H](Cc1c[nH]c2ccccc12)NC(=O)[C@H](CCC(N)=O)NC(=O)[C@@H](Cc1ccccc1)NC(=O)COCCOCCNC(=O)CCC(C(=O)O)N1CCN(CC(=O)O)CCN(CC(=O)O)CCN(CC(=O)O)CC1)C(C)C)C(N)=O (stereo partly shown) [lutetium-177 labelled] | – | – | female BALB/c nu/nu mice, blood | intravenous, 50 pmol, 24 h | – | tissue uptake | 0.008 ± 0.005 %ID/g
Cc1cc(Nc2ccc(S(F)(F)(F)(F)F)cc2)n2nc(C(C)(F)F)nc2n1 | Plasmodium falciparum | 12-lead Holter ECG | human malaria patients | oral, 400 mg, QTc above 450 ms | – | patients with QTcF above threshold | 10%
CCN1/C(=C/C(C)=O)Sc2ccc(F)cc21 | – | – | cynomolgus monkey | oral, 10 mg/kg, 6 h post-dose | reference: pre-dose | PR interval change | 103 ± 6.6%
O=C(CC1CCOCC1)Nc1ccc(C2CCCCC2)cc1 | – | – | cryopreserved mouse hepatocytes | 1 µM | – | hepatic clearance | 79 mL/min/kg
O=C(O)CC[C@H](NC(=O)N[C@@H](CCCCNC(=O)[C@H](Cc1ccc2ccccc2c1)NC(=O)CCCCCNC(=O)CN1CCN(CC(=O)O)CCN(CC(=O)O)CCN(CC(=O)O)CC1)C(=O)O)C(=O)O [gallium-68 labelled] | – | gamma counting | mouse, PC-3 xenograft, muscle | intravenous, 3.7 MBq, 2 h | – | tissue uptake | 1.8 ± 0.08 %ID/g
CC[C@H](CO)N(CCN(N=O)[C@H](CC)CO)N=O | Salmonella typhimurium | plate incorporation | TA1535, water | 2500 µg/plate, without S9 | – | revertant colonies per plate | 29 ± 1
Cc1ccc(Nc2ncnc3ccc(-c4cccc(N5CCOCC5)c4)cc23)cc1 | Trypanosoma brucei | – | HepG2 | 48 h | reference: HepG2 CC50 over T. brucei GI50 | selectivity index | 41
CCOc1c([C@H](C)n2nc(C)c3c(N)ncnc32)cc(Cl)c(F)c1[C@@H]1CNC(=O)C1 | – | ECG | previously treated B-cell malignancy patients | oral, 10 mg once daily, baseline QTcF ≤450 ms | – | observations QTcF >450 ≤480 ms | 0%
O=C(Nc1ccc(C2CCCCC2)cc1)[C@H]1CC1(F)F | – | liver microsome stability | rat liver microsomes | 1 µM | – | hepatic clearance | 51 mL/min/kg
Clc1ccc(Nc2ncnc3ccc(-c4cccc(N5CCOCC5)c4)cc23)cc1Cl | Trypanosoma brucei | – | HepG2 | 48 h | reference: HepG2 CC50 over T. brucei GI50 | selectivity index | > 980
O=C(NCCc1cccnc1)c1ccc([C@H]2[C@@H](F)[C@@H](F)C[C@@H](F)[C@H]2F)cc1 | – | hepatocyte stability | cryopreserved human hepatocytes | 1 µM | – | hepatic clearance | 13 mL/min/kg
Cc1nc(-c2cnc(NC(C)C)n(C)c2=O)ccc1Oc1ccnc(-c2cnn(C)c2)c1 | CYP3A4/5, human | inhibitor | – | direct, no preincubation | – | IC50 | > 100 µM
CN1CCN(c2cccc(-c3ccc4ncnc(Nc5ccc(Cl)c(Cl)c5)c4c3)c2)CC1 | Trypanosoma brucei | – | HepG2 | 48 h | reference: HepG2 CC50 over T. brucei GI50 | selectivity index | 50
O=C(Nc1nc2cccc(-c3ccc(CN4CCS(=O)(=O)CC4)cc3)n2n1)C1CC1 | – | measured: general and administration-site disorders | rheumatoid arthritis patients | oral, 30 mg once daily, 4 weeks, any relatedness | – | treatment-emergent adverse events | 0%

Excerpt of the above:
SMILES | target or system | assay | test system | conditions | how to read | endpoint | value
Cc1nc(-c2cnc(NC(C)C)n(C)c2=O)ccc1Oc1ccnc(-c2cnn(C)c2)c1 | CYP3A4/5, human | inhibitor | – | direct, no preincubation | – | IC50 | > 100 µM
CN1CCN(c2cccc(-c3ccc4ncnc(Nc5ccc(Cl)c(Cl)c5)c4c3)c2)CC1 | Trypanosoma brucei | – | HepG2 | 48 h | reference: HepG2 CC50 over T. brucei GI50 | selectivity index | 50
